Published values pooled from the literature.
Each numbered part is a random draw from the data of one study; scales do not carry over between parts.

Set 1
Target: RNA binding protein fox-1 homolog 2, RRM domain, GST-SBP tag (RBFOX2, Homo sapiens, UniProt O43251-10, residues 100-194)
Method: RNA Bind-n-Seq
Form: RNA
Medium: in vitro
Tested at: 365 nM
Notes: natural RNA segment, single round, ends assumed
Reference: no-protein control
Reading: higher = stronger binding
Construct (chain): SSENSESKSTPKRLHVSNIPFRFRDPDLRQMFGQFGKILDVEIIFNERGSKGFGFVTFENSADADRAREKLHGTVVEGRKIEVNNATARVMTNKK
Sequence | RBNS enrichment (R)
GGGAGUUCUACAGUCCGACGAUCGAAGUGUACGCCUAUUAUAUUCCCAAGGCAUUUUUGUGGGGAGGAACAGUGCUGCUUGUUGGCCUUUCCAUAUUCCCUCAUACAAAAAUGCUAAAAUCUAUUCGCAAGAGUGGAAUUCUCGGGUGCCAA | 0.269
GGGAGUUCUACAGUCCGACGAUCGGACUGGAUGGAGUGGAGGAGGCCCAGGCCACAGUACCACCCCACCUGCCCAGGCAGCCCCUCGUCACCUACUCCCCGAAGUUACCAGCUCAGCUCGAGUCUUCAGGGCUUGGAAUUCUCGGGUGCCAA | 0.193
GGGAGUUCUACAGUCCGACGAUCCUGACUCAGAAGACGCAGCUUACUGCUUCCAACUUUGCACAUCUUCCUCUUUAAAAAACUGAGAAAAUGCAAAAACUGGAACUUUUUGCAAUAUUAUAAAAGAAGUAAUCUGGAAUUCUCGGGUGCCAA | 0.35
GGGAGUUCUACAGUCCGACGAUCUACCCACGCCAUUUUACGUCUCCUUCACUGAAGGGCUAGAGUUUUAACUUUUAAUUUUUUAUAUUUAAAUGUAGACUUUUGACACUUUUAAAAAACAAAAAAUGACAAGAUGGAAUUCUCGGGUGCCAA | 0.638
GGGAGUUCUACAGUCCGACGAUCCAAUGUGAGUCCCAGAGCCCGCUUUUGUUCUUCCCCACAAUUCCAUUACUAAGAAACACAUCAAAUAAACUGACUUUUUCCCCCCAAUAAAAGCUCUUCUUUUUUAAUAUUGGAAUUCUCGGGUGCCAA | 0.86
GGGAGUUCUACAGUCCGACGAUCGCAUGGUGGUGCAUACCUAUAGUCCUGGCUAUUUGGGAGGCUGAGGCAGGAGGAUUGCUUUAGCCCUGGAGGUCGAGGCUGCAGUAAGCCAUGAUUGCGCCACUGCACUCUGGAAUUCUCGGGUGCCAA | 0.937
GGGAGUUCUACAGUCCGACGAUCUACAAAAAUGACUGUAUUCUCUCACCAGUAGGACUUAAACUUUGUUUCUCCAGUGGCUUAGCUCCUGUUCCUUUGGGUGAUCACUAGCACCCAUUUUUGAGAAAGCUGGUUGGAAUUCUCGGGUGCCAA | 0.352
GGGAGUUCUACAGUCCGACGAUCUGGUGAGCCACAAAUUACAUUGAUUAUGUUGAACUUAUUAUUCUUCAAAGAAAAUAUUUUAAACCUGUGAAAACUCACUAAUUUUGUUAAUAUUUAUCAUGAUGGCAUCAUGGAAUUCUCGGGUGCCAA | 0.696
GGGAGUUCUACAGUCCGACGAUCAAGAUUUAGGCACUCCAAGAGAGUAUGACUUCGUGUUUAAUUGGGGAGCUUGUUUUCAACAUUGCUUAUAUUUGAAUAGUAGAAAACCCGACAUUGAUGUUUCUUCCUGUUGGAAUUCUCGGGUGCCAA | 0.375

Set 2
Target: Histone acetyltransferase KAT6A, both winged helices, GST fusion (KAT6A, Homo sapiens, UniProt Q92794, residues 1-181)
Method: protein binding microarray
Form: double-stranded DNA, one strand shown
Medium: in vitro
Tested at: not given
Notes: 8-mer, flanks averaged, mean of 2 arrays, mostly near background
Reference: not given
Reading: higher = stronger binding
Target sequence (chain): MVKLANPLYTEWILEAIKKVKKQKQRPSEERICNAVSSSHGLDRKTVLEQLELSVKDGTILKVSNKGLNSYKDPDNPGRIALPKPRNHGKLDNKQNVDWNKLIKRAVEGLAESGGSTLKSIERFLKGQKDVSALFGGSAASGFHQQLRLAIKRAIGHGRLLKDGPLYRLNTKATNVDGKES
Sequence | E-score
GAGGCTCA | -0.0267
CCCGGATA | 0.0748
ATACACTG | -0.0825
ATACGTAT | 0.213
TACGTTGA | -0.0821
CTATTGCC | 0.0404
GGACAGAC | 0.0143
AAAGGTGC | -0.149
GTATCCCA | -0.11
GACACTGC | -0.106
CGTCGAGA | -0.0843
CTGATGAC | -0.0449
AATAAGCA | -0.148
CCGTTTCG | 0.182
CCTTATCC | -0.0859
AAAGAGCT | -0.17
CACGGGCG | 0.28
CCACGGCG | 0.338
AACACCGA | 0.147
GCCTCGAA | -0.0598
ACACATCC | -0.0418
GAGGTGGA | -0.149

Set 3
Target: RING finger protein unkempt homolog, zinc fingers 1-6, GST-SBP tag (UNK, Homo sapiens, UniProt Q9C0B0, residues 30-357)
Sequence of UniProt Q9C0B0 (30-357, looked up): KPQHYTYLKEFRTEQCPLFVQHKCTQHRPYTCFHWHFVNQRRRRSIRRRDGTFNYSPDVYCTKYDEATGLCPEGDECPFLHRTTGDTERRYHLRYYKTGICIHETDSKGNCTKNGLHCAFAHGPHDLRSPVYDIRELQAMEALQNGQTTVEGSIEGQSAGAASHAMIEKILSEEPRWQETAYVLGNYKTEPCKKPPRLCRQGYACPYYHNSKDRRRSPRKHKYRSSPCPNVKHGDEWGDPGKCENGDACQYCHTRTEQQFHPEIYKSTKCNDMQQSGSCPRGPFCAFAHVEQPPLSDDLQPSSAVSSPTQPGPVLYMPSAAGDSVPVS
Method: RNA Bind-n-Seq
Form: RNA
Medium: in vitro
Tested at: not given
Notes: RNA with constant flanks, human-mouse chimeric sites, ends assumed
Reference: input RNA pool
Reading: higher = stronger binding
Sequence | bound/input enrichment [ratio]
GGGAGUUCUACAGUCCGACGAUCCUCAGAGAUGUGGCAUAUCAGUAUGUGAAAAAGGGGGCUCGAAUUUAUGUGGAAGGGAAAGUGGACUAUGGCGAGUACAUGGAUAAAAAUAAUGUGAGGCGGCAAGCAACAACAAUCAUACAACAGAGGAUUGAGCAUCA | 0.373
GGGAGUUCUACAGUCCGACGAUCGAAACAUUUAAAUUUAAAGAAGCUGUUGUUCUAGGAAGUACGGACUUCCUAGAAGAUGAUAUAGAGAAAAUUGUAGAAGAACUGGGGAAAGAGUAUAAGGGCAACGCUUAUCAUUUAAUGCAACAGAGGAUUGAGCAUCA | 1.69
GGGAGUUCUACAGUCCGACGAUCGAAUCCUACUCAGGCGGAUUUUGCAACCUGAAUGCAACAGCAGCAGCAUCUUAGUCACAGUAGGGUAGCUUUAGGGCUCUGUGGCCAGGGUUUUAUUCACAUGCAGGUUUGGAAAAUGUACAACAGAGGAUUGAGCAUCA | 0.79
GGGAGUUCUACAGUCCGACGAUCUUUCUAUUGCAGCAGACGAUGCUAAGAAUUAAGGAUCCUAAGAAGUCCCUGGAUUUUUAUACGAGGGUUCUUGGACUGACCCUCCUGCAGAAGCUUGACUUCCCUGCUAUGAAGUUCUCGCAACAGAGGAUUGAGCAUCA | 0.295
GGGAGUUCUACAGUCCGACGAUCCGCUUGGAUGAGGCGGGUGUCACAGAUGAAGUGCUAGAUUCUGCCAUGCAAGCCUUCUUACUAGAAAUCAUUGUUAAACAUGGGGAGCCGGCACCUUAUUUAUGUAAUAAAGAUCCUUUUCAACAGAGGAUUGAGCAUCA | 0.284
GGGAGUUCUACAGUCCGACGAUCGUGCCCUUCUCGCUGCUCCUGCGGGGCAGCUGGGAACCAUUCCGGGACUGGUACCCUGCACACAGCCGCCUCUUCGAUCAAGCUUUCGGGGUGCCCCGGUUGCCCGAUGAGUGGUCGCAGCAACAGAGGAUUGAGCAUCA | 0.0597
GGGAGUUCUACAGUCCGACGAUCGGCUGCUACUAUUCUCCCUGGAGUGGCUGGAGUUCCCGCCGGAGCGCGGCCAGACUAAUUUUAGAAAAUGCCAAGUAGGAAGUUUGUCGAUGGUGAAGUGGUCAGAGGCCGAUGGCCUGGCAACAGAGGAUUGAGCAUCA | 2.42
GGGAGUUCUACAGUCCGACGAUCAGAUUCCCCCUCCUGAGACCUCCUCCGAAGUUGGAGUCUCUUAUAGAUGCCUCAUCCCCUGUUAGCGUUUUAGUUUGGACCACCCAGCCUUGGACGAUUCCCGCCAACCAGGCAAUUUGCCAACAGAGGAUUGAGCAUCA | 0.947
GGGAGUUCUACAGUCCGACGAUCGUUCGGCUCUGGGAUCAUGCCACAAUGACAGAAGUGAAAUCUCUGAAUUUUAAUAUGUCUGUUAGCAGUAUGGAAUAUAUUCCUGAAGGAGAGAUUUUGGUUAUAACUUAUGGACGAUCUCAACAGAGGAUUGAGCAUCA | 1.12
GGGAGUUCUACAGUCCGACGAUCGUAGCUGGGACUACAGAAAUGCUGGUAAUUUCAGUCACUUGCUGAUGACUUCUGAUGUCCCAGCAAAUGUUGGCAUUGUUGACUGCUGAGAAGAUACACUCGCAAGGAUACAGCAGUGGUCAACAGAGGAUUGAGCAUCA | 0.0955
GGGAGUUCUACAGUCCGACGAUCCUGUGACUGAUGGCAGCUACCUGAGUGGCAGCUGAAGUUGACUCCCUCUCCUUGCCUGAACCCCCCCCCACUGCCCCCCCAUCCCCCAGUGUCGGCUGAGAUGUUGCCUCUGCACGGUUCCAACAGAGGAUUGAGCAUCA | 1.32

Set 4
Target: Centromere-binding protein 1, full length, N-terminal tag (CBF1, Saccharomyces cerevisiae, UniProt P17106, residues 1-351)
Sequence of UniProt P17106 (whole entry, looked up): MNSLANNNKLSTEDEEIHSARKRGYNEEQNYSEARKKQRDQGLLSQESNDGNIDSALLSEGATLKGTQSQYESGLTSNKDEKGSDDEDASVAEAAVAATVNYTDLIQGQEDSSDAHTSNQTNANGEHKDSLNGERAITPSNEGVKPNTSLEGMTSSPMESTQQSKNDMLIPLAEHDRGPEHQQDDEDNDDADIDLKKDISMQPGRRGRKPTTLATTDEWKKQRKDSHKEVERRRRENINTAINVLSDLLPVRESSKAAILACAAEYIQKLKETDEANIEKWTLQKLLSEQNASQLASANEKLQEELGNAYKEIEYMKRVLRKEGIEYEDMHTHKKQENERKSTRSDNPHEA
Method: protein-binding microarray
Form: double-stranded DNA, one strand shown
Medium: in vitro
Tested at: 0.8 µM
Notes: whole 60-bp probe, no competitor
Reading: higher = stronger binding
Sequence | fluorescence intensity [a.u.]
GAAAATCAAAAGGATGACGTCAACAAAAAACACTAGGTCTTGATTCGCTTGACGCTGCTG | 520
GAATTAGTGCCCAAACACGGGATGTTTCAAGTATAGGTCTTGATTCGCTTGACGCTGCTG | 618
CTAGAACAAATTTTCCACATGCTTGTGCCTGCTTTCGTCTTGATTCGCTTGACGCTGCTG | 516
CTATTATATGACATTCACATGAATTCAACAGCTTTCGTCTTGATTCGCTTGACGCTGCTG | 558
CTATATCAACGCGTCCACACCACCTCACCCTCGTTCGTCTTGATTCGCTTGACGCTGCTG | 540
CTAGATGCCCTCCCCCACGTTATTGTTGTATAATTCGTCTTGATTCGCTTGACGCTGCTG | 519
GAAAAGCATTCTGATCCCGTGTGCTATTATGCTTAGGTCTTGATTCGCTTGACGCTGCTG | 1170
CCTAACTACTATACTCAACTGATATAGCTTCGTACAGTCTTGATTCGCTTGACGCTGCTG | 526
CTACAGATATAATAGCACGAGAAAAAACTCGTTTTCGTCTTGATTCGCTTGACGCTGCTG | 600
GAAAACTAACGAGAACACGTTCACTACAGACATTAGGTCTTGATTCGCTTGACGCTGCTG | 572
GAATCTCCGACCAGTCACGATTAATTAAATTGCTAGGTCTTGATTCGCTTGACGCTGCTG | 718
GAAGAGGAAGCCCGTCACGTGGCTGCGCTGTCTTAGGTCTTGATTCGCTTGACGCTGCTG | 11700
GAAGGCGGCAAAAGGCGGGTGATTCGAAAAGTATAGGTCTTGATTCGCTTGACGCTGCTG | 527
CTAGCGTACACCTGTCATGCGTTCCTTAGTGCCTTCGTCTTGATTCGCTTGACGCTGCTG | 655
GAAAAGTCAGCACGTGATCTGCTAAGAAATCCGTAGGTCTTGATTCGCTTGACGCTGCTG | 23300
GAATTTACAGTAGCGCTGATGGCATCTTGTGTGTAGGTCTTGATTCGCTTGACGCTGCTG | 470
CTACCATTTTTAAGATTGGTGATGGATAGAATTTTCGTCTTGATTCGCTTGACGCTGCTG | 530
CCTAACTACTATATGCACGTGCGATAGCTTCGTACAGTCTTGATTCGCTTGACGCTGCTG | 10000

For quick reference, copied from above (set 4):
Sequence | fluorescence intensity [a.u.]
GAAGGCGGCAAAAGGCGGGTGATTCGAAAAGTATAGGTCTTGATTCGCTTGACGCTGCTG | 527
CTAGCGTACACCTGTCATGCGTTCCTTAGTGCCTTCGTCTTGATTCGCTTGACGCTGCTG | 655
GAAAAGTCAGCACGTGATCTGCTAAGAAATCCGTAGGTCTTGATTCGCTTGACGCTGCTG | 23300
